Measured values collected from several papers.
Parts stem from different laboratories: compare values within a part only. Substitutions count along the parent as printed.

Series 1 — method: DHFR PCA, deep sequencing; medium: yeast; with: (+)-ABA 0.11 µM; baseline: wild-type fitted maximum; reading: higher = stronger binding
Target: ABI1, truncated, D143A, DHFR fusion (Arabidopsis thaliana)
Notes: methotrexate growth selection, single substitutions
Starting sequence: PYL1, truncated, DHFR fusion (Arabidopsis thaliana); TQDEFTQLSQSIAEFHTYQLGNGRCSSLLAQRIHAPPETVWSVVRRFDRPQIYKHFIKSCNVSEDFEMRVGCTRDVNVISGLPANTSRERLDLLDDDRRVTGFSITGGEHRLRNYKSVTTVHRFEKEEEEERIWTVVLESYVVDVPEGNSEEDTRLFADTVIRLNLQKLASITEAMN; partner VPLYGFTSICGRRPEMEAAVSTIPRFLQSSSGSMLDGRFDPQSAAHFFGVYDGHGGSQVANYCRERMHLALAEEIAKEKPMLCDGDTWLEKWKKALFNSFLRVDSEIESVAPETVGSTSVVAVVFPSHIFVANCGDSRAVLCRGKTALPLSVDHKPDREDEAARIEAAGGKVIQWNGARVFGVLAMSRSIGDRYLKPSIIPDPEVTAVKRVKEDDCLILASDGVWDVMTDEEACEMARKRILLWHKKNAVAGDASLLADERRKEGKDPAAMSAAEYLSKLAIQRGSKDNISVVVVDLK
Change | relative binding score
E131D | 53.3%
P83D | 5.37%
S80I | 28.5%
F103W | -6.68%
E131T | 50%
F5S | 7.7%
I162V | 47.7%
E67T | 25.7%
D3M | 31.3%
V78S | 14.3%
G102P | -8.82%

Series 2 — target: CCND1, cyclin fold, Cln2 fusion (human); method: yeast growth competition, sequencing; medium: yeast; notes: weak parent motif; baseline: not given; reading: higher = stronger binding
Starting sequence: CDC6 docking peptide (human); TLKGRRLVFDNQL
Change | normalised enrichment score
D10H | -0.43
K3D | 0.183
F9W | 0.593
Q12M | 0.576
R6V | 1.54
R6N | 0.32
K3E | 0.665
R5C | 0.634
D10Y | 0.418
R5F | 0.682
T1H | 0.441
K3F | 0.0511
R5P | 0.329
V8T | 0.509
N11H | 0.134
R6M | 1.28
K3Y | 0.566
Q12Y | 0.427
R6G | -0.0581
R5I | 0.423
D10T | -0.283
F9G | -0.444
D10L | -0.0138
N11G | 0.376
R6L | 0.659

Series 3 — method: protein binding microarray; molecule type: double-stranded DNA, one strand shown; medium: in vitro; tested at: not given; baseline: not given; reading: higher = stronger binding
Target: Histone acetyltransferase KAT6A, both winged helices, GST fusion (KAT6A, Homo sapiens, UniProt Q92794, residues 1-181)
Notes: 8-mer, flanks averaged, mean of 2 arrays, mostly near background
Target sequence (chain): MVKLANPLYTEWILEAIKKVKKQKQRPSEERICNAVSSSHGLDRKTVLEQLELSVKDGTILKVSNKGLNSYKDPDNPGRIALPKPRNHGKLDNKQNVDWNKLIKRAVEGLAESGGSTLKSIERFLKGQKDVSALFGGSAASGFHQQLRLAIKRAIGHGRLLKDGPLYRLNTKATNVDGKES
Oligonucleotide | E-score
CTACGAGC | 0.00132
TCAGAGAA | -0.149
GTCTGGTA | -0.208
AGTGCACT | -0.164
GAACGATC | 0.121
AGCCCGTG | 0.196
CGCATGCG | 0.264
TCCGTGAA | 0.251
GCGCCACA | 0.164
ATTGACTC | -0.16
CCTACATA | -0.0902
ATACAGTA | -0.033
CTAAAGGA | -0.0213
CAGGGACC | -0.124
AGTCCTGC | -0.0545
AAGTAACA | -0.143
CTGCTGGA | -0.188
AAAGTTGA | -0.0537
AGGTTAGC | -0.0467
AAATCGCC | -0.0109
ATAGGTTG | -0.151
ACAAACGT | -0.0755
CCACTAGA | -0.159

Series 4 — method: RNA Bind-n-Seq; molecule type: RNA; medium: in vitro; tested at: 365 nM; baseline: no-protein control; reading: higher = stronger binding
Target: RNA binding protein fox-1 homolog 2, RRM domain, GST-SBP tag (RBFOX2, Homo sapiens, UniProt O43251-10, residues 100-194)
Notes: natural RNA segment, single round, ends assumed
Shared flanks, not repeated: GGGAGUUCUACAGUCCGACGAUC … UGGAAUUCUCGGGUGCCAA
Target sequence (chain): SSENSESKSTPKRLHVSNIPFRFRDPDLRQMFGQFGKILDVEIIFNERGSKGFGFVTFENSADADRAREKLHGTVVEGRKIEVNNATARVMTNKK
Oligonucleotide | RBNS enrichment (R)
UUAUAUGUGUGUUUAACAGGAUGAGAGCAUGGCGAGCUUGUAGCACACCAGAGGUUGUAGACCUAUAUCUGGUAUCCAGAACCUGACAGGGAAACAGUUCUUGGUCCCCC | 1.06
AGGGAGAGGAAGUCUCGCUCUCUCUCCUCACAGCCCUUGGCCCCAGCAUUUAUUCUUGGGUCCUUUAGCCAAACCCAUUCCCUCUUCCUCCCAUGCAAGUUCUUUUGGGA | 2.87
CCCUGGAUGGUACCGUUUCUUCUCCGUCUCUCUUUGAUGAUUCUUUGGGACCAAAGUCCUCUCCUUAGUGCGCCUACUUCCUGUGGGCAUCAUGCCACUUGGAACUUAUU | 0.338
GAGCAGUGUCAGAGAUUCUUGCUUUAACUUUGAUUUGCUUUCUCCCAUUCUUGGCCCUGGUCACUAGGGUCCUGGCUAUUCUAGAACUCAGUAAAAUGUAUGUCUAAUGC | 0.204
CUGUCCCUAAAGGAAUGUGCGUCUAUGGCAGGUAGGCAACUCGGUCCUAUCACAUACCAAGUAGUGAGUGGAGAAAGUAUUUUCAGAUUCAAGAAAACUUUGGAAAGUCA | 0.328
UGCACAUAACCAAAUGGGGGCCAAUGGCACAGUACCUUACUCAUCAUUUAAAAACUAUAUUUACAGAAGAUGUUUGGUUGCUGGGGGGGCUUUUUUAGGUUUUGGGGCAU | 0.875
UAGAGACAGGGUUUCACCAUGUUGGCCAGGAUGGUCUUGAUCUCUUGACCUCGUGAUCCGCCCACCUUGGCCUCCCAAAGUGCUGGAUUACAGGUGUGAGCCACCGUGCC | 0.331
GUGGCCAUAGGGACCAGAAAGCAGCUUAGGAAAUCUAUCCAUUGGCCCUUUUAGAGUCUCUGUGUGAACCCAACUCUACUGAACUUAAACACCUUCCAAACAGUGGCAGG | 0.25
CUCCCAGGCAUUUUCCAUUCCUGGAAAGGCUCCUUUGGGGUUCAGAAUCCAGAGACCAAACCCUGACCCACCUCCUUCCUUUCCUCCAGCCCACGCUGGUCUGUCCCCAU | 0.453
GGGAACACACAAAGAAUUACACAACGUUUUCCUCAAGAAAAUGGUACAAAACACAACCGAGGAGCGUAUACAGUUGAAAACAUUUUUGUUUUGAUUGGAAGGCAGAUUAU | 0.306
GUCUGUGGUUAACACCCUGGGAUAAUUGUGAUGGGCAGAUGCGCAGUAAUGGCCUGUGUUGGUAACAAUAUUAUCUAGUUCAAUGCCAUGCAGUAGCAUUGUAUAGCAAC | 0.388
CUAUGAAAACUCAUGUUUCUCUGUUUCUCUUUUCCACAAUUCCAUUUUCUUUGGCAUCUCUUUGCCCUUUCCUCUGGAGUCUUUCUUGAGUACUGAUUUCAUGUUGAAUU | 0.417

Excerpt of the above (series 2):
Change | normalised enrichment score
Q12M | 0.576
R6V | 1.54
R6N | 0.32
K3E | 0.665
R5C | 0.634
D10Y | 0.418
R5F | 0.682
T1H | 0.441
